Results from different studies.
Compare with care: the assays were run in different laboratories. Values joined by “and” are separate records of one study, mostly repeats; a detail may differ. ± gives the spread as reported.

SMILES	test	system	setting	scale	measurement	value
COC(=O)C[C@](O)(CCCC(C)(C)OC(C)=O)C(=O)O[C@@H]1C(OC)=C[C@]23CCCN2CCc2cc4c(cc2[C@H]13)OCO4		CD1 mouse, brain	oral, 1 mg/kg, 8 h, below quantification limit 1.00 ng/mL		tissue concentration	not detected
Cc1cc(Nc2nc(C[C@@]3(C(=O)O)CCN(Cc4cccc(Cl)c4F)[C@H](C)C3)cc(C)c2F)n[nH]1		beagle dog, plasma	intravenous, 1 mg/kg, single dose		Vd	0.559 L/kg
COc1cc(NC(=O)C(=O)c2c(C)n(Cc3ccc(Cl)cc3)c3ccc(C)cc23)ccn1		cynomolgus monkey, female, plasma	intravenous, 1 mg/kg		CL	8.16 mL/min/kg and 6.39 mL/min/kg and 20.2 mL/min/kg and 10.2 mL/min/kg and 9.69 mL/min/kg
CCOP(=O)(OCC)OCCCCOC(=O)CC1=C(C)C(=Cc2ccc([S+](C)[O-])cc2)c2ccc(F)cc21 (stereo not drawn)	HPLC	mouse, lung tissue	inhalation, dose not given, 8 min exposure		AUC(0-24h)	7.7 nmol·h/g
CC[C@H](C)C(=O)N1CCC(NC(=O)Nc2ccc(OC(F)(F)F)c(F)c2)CC1		healthy volunteers	oral, 0.5 mg single dose, 14 (unit not given)		subjects with severe TEAE	0%
C[C@H]1N=C(c2ccccc2F)c2cc(Br)ccc2-n2cnc(C(=O)NCCS(=O)(=O)O)c21	LC-MS/MS	Swiss Webster mouse, female, urine	oral, 750 µg parent drug, 0 to 24 h		cumulative excretion	0.2 ± 0.04%
CC(C)C[C@@H]1NC(=O)[C@@H](Cc2ccccc2)NC(=O)[C@H](CCN)NC(=O)[C@@H](NC(=O)[C@H](CN)NC(=O)[C@@H](NC(=O)CC(CN)Cc2ccccc2)[C@@H](C)O)CCNC(=O)[C@H]([C@@H](C)O)NC(=O)[C@H](CCN)NC(=O)[C@H](CCN)NC1=O (stereo partly drawn)	LC-MS/MS	CD-1 mouse, kidney homogenate	subcutaneous, 17.2 mg/kg single dose, 4 to 16 h		kidney AUC(4-16 h)	847 µg·h/g
CC(C)C[C@@H](NC(=O)[C@@H](CCCCN)NC(=O)CNC(=O)CNC(=O)[C@@H]1CSSC[C@H](N)C(=O)NCC(=O)N[C@@H](CCCNC(=N)N)C(=O)N[C@@H](CCCNC(=N)N)C(=O)N[C@@H](C)C(=O)NCC(=O)NCC(=O)N[C@@H](CO)C(=O)N1)C(=O)N[C@H](C)C(=O)N[C@H](CCCCN)C(=O)N[C@H](CC(C)C)C(=O)N[C@H](C)C(=O)N[C@H](CCCCN)C(=O)N[C@H](CCCCN)C(=O)N[C@H](CC(C)C)C(=O)N[C@H](C)C(=O)N[C@H](CCCCN)C(=O)N[C@H](CC(C)C)C(=O)N[C@H](C)C(=O)N[C@H](CCCCN)C(=O)O		cynomolgus monkey, plasma	intravenous, 3 mg/kg, infusion		half-life	53.4 min
CC(C)C[C@H](NC(=O)[C@H](CCCCN)NC(=O)[C@H](CCC(=O)O)NC(=O)[C@H](C)NC(=O)[C@@H](NC(=O)[C@H](CCCCN)NC(=O)[C@H](CC(=O)O)NC(=O)[C@H](Cc1ccc(O)cc1)NC(=O)[C@H](Cc1ccccc1)NC(=O)[C@H](C)NC(=O)[C@H](CCCCN)NC(=O)[C@H](CC(C)C)NC(=O)[C@H](Cc1c[nH]c2ccccc12)NC(=O)[C@@H](N)CC(=O)O)C(C)C)C(=O)N[C@@H](CCCCN)C(=O)N[C@@H](CCC(=O)O)C(=O)N[C@@H](C)C(=O)N[C@@H](Cc1ccccc1)C(=O)N1CCC[C@H]1C(=O)N[C@@H](CC(=O)O)C(=O)N[C@@H](Cc1c[nH]c2ccccc12)C(=O)N[C@@H](C)C(=O)N[C@@H](CCCCN)C(=O)N[C@@H](C)C(=O)N[C@@H](C)C(=O)N[C@@H](Cc1ccc(O)cc1)C(=O)N[C@@H](CC(=O)O)C(=O)N[C@@H](CCCCN)C(=O)N[C@@H](C)C(=O)N[C@@H](C)C(=O)N[C@@H](CCC(=O)O)C(=O)N[C@@H](CCCCN)C(=O)N[C@@H](C)C(=O)N[C@@H](CCCCN)C(=O)N[C@@H](CCC(=O)O)C(=O)N[C@@H](C)C(=O)N[C@@H](C)C(=O)O		cynomolgus monkey female, plasma	intravenous infusion, 75 mg/kg, day 1, 30 min infusion		volume of distribution at steady state	0.044 L/kg
CCCCCCCCCCCCC(=O)O.O=C1CCCC2C3CCCN4CCCC(CN12)C34 (stereo not drawn)		water	concentration not given, 303.15 K		critical micelle concentration	0.00248 mol/kg
CC(=CCC(O)C(C)=Cc1csc(C)n1)CC=CC(C)C(O)C(C)C(=O)C(C)(C)C(O)CC(=O)O (stereo not drawn)		human, plasma	intravenous infusion, 6.5 mg/m2 KOS-1584, 3 h infusion, cycle 1		AUC	55 ± 27.1 ng·h/mL
[18F]c1ccc2cc(-c3cnc(N4CCOCC4)nc3)[nH]c2c1	dynamic PET	Sprague-Dawley rats, both sexes, whole brain	intravenous, dose not given		peak brain radioactivity	2.8 ± 0.15 SUV
CSCC[C@@H]1NC(=O)[C@@H]2CSSC[C@H](NC(=O)[C@H](CO)NC(=O)[C@H](C)N)C(=O)N[C@@H](CCCNC(=N)N)C(=O)N[C@@H]([C@@H](C)O)C(=O)N3CCC[C@H]3C(=O)N[C@@H](CCCCN)C(=O)N[C@@H](CC(=O)O)C(=O)N[C@H]3CSSC[C@H](NC(=O)[C@H](CCCCN)NC(=O)[C@H](CCCNC(=N)N)NC(=O)[C@H](CC(N)=O)NC1=O)C(=O)N[C@@H](CCCCN)C(=O)N[C@H]1CSSC[C@H](NC(=O)[C@@H]4CCCN4C(=O)[C@H](CC(=O)O)NC(=O)[C@H](C)NC3=O)C(=O)N[C@@H](C)C(=O)N[C@@H](CCCCN)C(=O)N[C@@H](CCC(=O)O)C(=O)N[C@@H]([C@@H](C)O)C(=O)NCC(=O)N[C@@H](CSSC[C@@H](C(N)=O)NC(=O)[C@H](CCCNC(=N)N)NC(=O)[C@H](CC(N)=O)NC1=O)C(=O)N1CCC[C@H]1C(=O)N[C@@H](Cc1ccc(O)cc1)C(=O)NCC(=O)N[C@@H](CCCCN)C(=O)N2		DA rat pristane-induced arthritis, serum	subcutaneous, 0.1 mg/kg single dose at onset, 21 days		Sodium	131 mmol/L
COc1ccc(C)cc1NC(=O)OC1CC2CCCC(C1)N2Cc1ccc(CC[18F])cc1 (stereo not drawn)		BALB/c mice, EMT6 tumour	5 min	baseline: tumour over muscle	tumour to tissue ratio	0.3
CCC(CC)OC1C=C(C(=O)OC(C)OC(=O)C(N)C(C)C)CC(NC(=N)N)C1NC(C)=O (mixture of isomers)		mouse (fed), plasma	oral, 10 mg/kg		Cmax	405 ± 297 ng/mL
CC(C)C[C@@H]1NC(=O)[C@@H](Cc2c[nH]c3ccccc23)NC(=O)[C@H](CCCN)NC(=O)[C@@H](CO)NC(=O)[C@H](CCC(N)=O)NC(=O)[C@@H](CCC(=O)O)NC(=O)[C@H](CO)NC(=O)[C@@H](Cc2c[nH]c3ccccc23)NC1=O	haemolysis		500 µM		haemolysis	3%
CC[C@H](C)[C@H](NC(=O)[C@H](C)NC(=O)CNC(=O)[C@H](CCCCN)NC(=O)[C@@H](NC(=O)[C@H](CC(C)C)NC(=O)[C@H](C)NC(=O)CNC(=O)[C@H](CC(C)C)NC(=O)[C@@H](N)Cc1ccccc1)[C@@H](C)CC)C(=O)N[C@@H](Cc1c[nH]cn1)C(=O)NCC(=O)NCC(=O)N[C@@H](CCCNC(=N)N)C(=O)N[C@@H](Cc1ccccc1)C(=O)N[C@H](C(=O)N[C@@H](Cc1c[nH]cn1)C(=O)NCC(=O)N[C@@H](CCSC)C(=O)N[C@H](C(=O)N[C@@H](CCC(N)=O)C(=O)N[C@@H](CC(N)=O)C(=O)N[C@@H](Cc1c[nH]cn1)C(=O)N[C@@H](Cc1c[nH]cn1)C(N)=O)[C@@H](C)CC)[C@@H](C)CC		zebrafish embryos	1 h, 4, 28, 52 hpf		acute toxic concentration	5 to 25 µg/mL
Cc1cc(-c2ccc3ccccc3c2)nnc1NCCN1CCN(C)CC1	metabolic stability	rat, liver microsomes			half-life	> 60 min
CC(C)C[C@@H](N)C(=O)NCC(=O)N[C@H](C)C(=O)N[C@H](CO)C(=O)N[C@H](Cc1c[nH]c2ccccc12)C(=O)N[C@H](Cc1c[nH]cn1)C(=O)N[C@H](CCCNC(=N)N)C(=O)N1CCC[C@@H]1C(=O)N[C@H](CC(=O)O)C(=O)N[C@H](CCCCN)C(=O)N[C@H](CS)C(=O)N[C@H](CS)C(=O)N[C@H](CC(C)C)C(=O)NCC(=O)N[C@H](Cc1ccc(O)cc1)C(=O)N[C@H](CCC(N)=O)C(=O)N[C@H](CCCCN)C(=O)N[C@H](CCCNC(=N)N)C(=O)N1CCC[C@@H]1C(=O)N[C@H](CC(C)C)C(=O)N1CCC[C@@H]1C(N)=O	LC-MS/MS	rat plasma	500 ng/mL, 30 days, -80 °C, storage		measured concentration	563 ± 21 ng/mL
Nc1ccn(CC2COP(=O)(OCCNC(=O)CCCCC3SCC4NC(=O)NC43)CO2)c(=O)n1 (mixture of isomers)		rabbit, retina-choroid		baseline: parent CDF	partition coefficient	3.07 fold
O=c1c(-c2cnn(-c3ccc(Cl)cc3)c2)c(C(F)(F)F)oc2c(O)c(O)ccc12		mouse	intraperitoneal, 100 mg/kg, 24 h		trough concentration	89 nM
CC(=O)[O][Cu+].CN1CCN2CCN(C)CCN(CC1)CC2	cyclic voltammetry, refers to: Cu(II)/Cu(III)	acetonitrile	1 mM, copper acetate complex	baseline: SHE	oxidation potential	1.42 V
COC[C@@H](NC(C)=O)C(=O)NCc1ccc(OCc2cccc(Cl)c2)cc1	behavioural toxicity	rat	oral		TD50	> 500 mg/kg
CN(C)C(CNC(=O)Nc1cc(C(F)(F)F)ccc1N1CCOCC1)c1ccncc1 (stereo not drawn)		mouse, serum	intraperitoneal, 240 mg/kg single dose		serum potassium	5.7 mmol/L

Some of these lines once more:
SMILES	test	system	setting	scale	measurement	value
Nc1ccn(CC2COP(=O)(OCCNC(=O)CCCCC3SCC4NC(=O)NC43)CO2)c(=O)n1 (mixture of isomers)		rabbit, retina-choroid		baseline: parent CDF	partition coefficient	3.07 fold
O=c1c(-c2cnn(-c3ccc(Cl)cc3)c2)c(C(F)(F)F)oc2c(O)c(O)ccc12		mouse	intraperitoneal, 100 mg/kg, 24 h		trough concentration	89 nM
